# Results gathered from unrelated publications.
# Each numbered part is a random draw from the data of one study; scales do not carry over between parts.
# UniProt P62344, sequence (whole entry, looked up): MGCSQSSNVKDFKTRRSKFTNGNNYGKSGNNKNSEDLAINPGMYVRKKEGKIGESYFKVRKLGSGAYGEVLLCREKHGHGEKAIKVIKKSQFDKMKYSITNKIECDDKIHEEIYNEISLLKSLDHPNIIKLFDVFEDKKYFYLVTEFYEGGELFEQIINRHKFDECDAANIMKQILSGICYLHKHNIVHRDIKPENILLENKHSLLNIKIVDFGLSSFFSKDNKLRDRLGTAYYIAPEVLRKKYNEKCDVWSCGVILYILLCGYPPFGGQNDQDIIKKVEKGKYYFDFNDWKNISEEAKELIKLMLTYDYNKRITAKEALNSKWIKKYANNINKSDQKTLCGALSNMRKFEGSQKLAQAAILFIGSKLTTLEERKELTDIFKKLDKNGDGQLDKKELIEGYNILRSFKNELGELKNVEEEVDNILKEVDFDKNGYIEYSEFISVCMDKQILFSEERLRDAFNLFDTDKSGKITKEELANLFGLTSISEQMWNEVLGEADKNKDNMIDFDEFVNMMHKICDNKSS
# UniProt Q9UKS7, sequence (whole entry, looked up): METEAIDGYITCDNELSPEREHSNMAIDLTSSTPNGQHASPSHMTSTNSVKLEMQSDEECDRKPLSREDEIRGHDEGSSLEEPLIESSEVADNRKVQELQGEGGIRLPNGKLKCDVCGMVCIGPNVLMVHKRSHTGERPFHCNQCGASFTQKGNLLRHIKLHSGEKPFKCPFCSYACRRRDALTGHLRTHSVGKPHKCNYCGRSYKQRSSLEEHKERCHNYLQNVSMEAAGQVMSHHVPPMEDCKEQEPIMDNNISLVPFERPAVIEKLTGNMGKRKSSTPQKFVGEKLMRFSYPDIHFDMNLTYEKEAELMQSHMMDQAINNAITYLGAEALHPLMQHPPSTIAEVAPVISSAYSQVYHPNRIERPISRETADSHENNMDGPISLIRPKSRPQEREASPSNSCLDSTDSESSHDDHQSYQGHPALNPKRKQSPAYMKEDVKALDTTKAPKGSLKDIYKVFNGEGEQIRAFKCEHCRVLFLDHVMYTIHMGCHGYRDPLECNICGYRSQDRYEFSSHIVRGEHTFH
# UniProt Q96SW2, sequence (whole entry, looked up): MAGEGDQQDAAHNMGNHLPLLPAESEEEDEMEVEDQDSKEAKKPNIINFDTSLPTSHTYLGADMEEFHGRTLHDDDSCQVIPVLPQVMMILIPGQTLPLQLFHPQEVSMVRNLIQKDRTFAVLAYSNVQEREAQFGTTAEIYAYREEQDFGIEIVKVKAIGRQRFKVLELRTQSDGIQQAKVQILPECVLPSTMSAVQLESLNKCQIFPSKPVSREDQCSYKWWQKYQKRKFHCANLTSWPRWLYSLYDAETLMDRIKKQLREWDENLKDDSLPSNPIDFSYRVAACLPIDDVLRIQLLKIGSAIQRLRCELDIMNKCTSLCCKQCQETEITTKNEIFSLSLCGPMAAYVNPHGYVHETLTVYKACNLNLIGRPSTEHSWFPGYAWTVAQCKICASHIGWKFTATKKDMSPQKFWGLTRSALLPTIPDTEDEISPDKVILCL
# UniProt P9WI81, sequence (whole entry, looked up): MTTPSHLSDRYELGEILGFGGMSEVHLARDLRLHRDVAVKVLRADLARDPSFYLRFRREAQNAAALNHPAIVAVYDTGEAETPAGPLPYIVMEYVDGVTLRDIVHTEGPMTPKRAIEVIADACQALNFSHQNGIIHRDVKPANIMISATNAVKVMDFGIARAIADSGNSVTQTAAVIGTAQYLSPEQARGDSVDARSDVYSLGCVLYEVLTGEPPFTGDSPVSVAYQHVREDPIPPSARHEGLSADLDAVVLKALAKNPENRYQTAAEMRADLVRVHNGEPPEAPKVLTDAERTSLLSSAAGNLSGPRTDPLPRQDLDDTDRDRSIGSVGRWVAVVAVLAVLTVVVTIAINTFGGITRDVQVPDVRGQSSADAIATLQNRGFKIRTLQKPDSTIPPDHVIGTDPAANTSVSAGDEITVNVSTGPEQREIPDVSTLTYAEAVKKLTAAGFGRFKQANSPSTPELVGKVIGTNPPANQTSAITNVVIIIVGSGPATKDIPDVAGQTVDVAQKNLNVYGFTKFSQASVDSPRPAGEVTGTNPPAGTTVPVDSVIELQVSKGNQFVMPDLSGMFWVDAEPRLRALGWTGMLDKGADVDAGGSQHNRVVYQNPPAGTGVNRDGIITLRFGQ
# UniProt P55212, sequence (whole entry, looked up): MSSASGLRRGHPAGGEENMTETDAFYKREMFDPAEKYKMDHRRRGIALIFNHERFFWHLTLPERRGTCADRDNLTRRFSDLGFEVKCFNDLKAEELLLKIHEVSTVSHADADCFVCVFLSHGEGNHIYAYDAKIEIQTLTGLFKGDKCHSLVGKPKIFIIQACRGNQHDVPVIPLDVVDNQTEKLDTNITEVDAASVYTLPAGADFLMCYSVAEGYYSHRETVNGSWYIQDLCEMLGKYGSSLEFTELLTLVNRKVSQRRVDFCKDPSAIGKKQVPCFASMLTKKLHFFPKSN

# Sample 1 — cell line: HEK-293T/ACE2; concentration: 10 µM; time: 16 h; reference: vehicle
Compound,viability
C[N+]1(C)CCCC(OC(=O)C(O)(c2ccccc2)c2ccccc2)C1 (stereo not shown),102%
O=C1NC(=O)C(c2ccccc2)(c2ccccc2)N1,96.6%
Cc1nc(Nc2ncc(C(=O)Nc3c(C)cccc3Cl)s2)cc(N2CCN(CCO)CC2)n1,104%
Clc1ccc(CCC(Cn2ccnc2)Sc2c(Cl)cccc2Cl)cc1 (stereo not shown),95.4%
NC(=O)CC[C@H](N)C(=O)O,99.2%
COC(=O)[C@H]1[C@H]2C[C@@H]3c4[nH]c5cc(OC)ccc5c4CCN3C[C@H]2C[C@@H](OC(=O)c2cc(OC)c(OC)c(OC)c2)[C@@H]1OC,101%
C=CC1=C(C(=O)O)N2C(=O)[C@@H](NC(=O)/C(=N\OCC(=O)O)c3csc(N)n3)[C@H]2SC1,97.8%
C[C@H](CCC(=O)O)[C@H]1CC[C@H]2[C@@H]3[C@H](O)C[C@@H]4C[C@H](O)CC[C@]4(C)[C@H]3CC[C@]12C,100%
CC(C)(C)C(=O)OCOP(=O)(COCCn1cnc2c(N)ncnc21)OCOC(=O)C(C)(C)C,73.7%
NS(=O)(=O)c1cc2c(cc1Cl)N=C(CSCc1ccccc1)NS2(=O)=O,105%
Cc1nnc(NS(=O)(=O)c2ccc(N)cc2)s1,98.8%
NCCCCCC(=O)O,104%
CN1C(C(=O)Nc2ccccn2)=C(O)c2ccccc2S1(=O)=O,97.3%
CCOC(=O)C1=C(COCCN)NC(C)=C(C(=O)OC)C1c1ccccc1Cl (stereo not shown),96.5%
Cc1c(OCC(F)(F)F)ccnc1C[S+]([O-])c1nc2ccccc2[nH]1 (stereo not shown),98%
Nc1ncnc2c1ncn2[C@@H]1O[C@H](CO)[C@@H](O)[C@H]1O,99.7%
CC(=O)Oc1ccccc1C(=O)Nc1ncc([N+](=O)[O-])s1,77.7%

# Sample 2 — observed: peptide-MHC binding; form: peptide; concentration: concentration not given
# Target: HLA class I histocompatibility antigen, A alpha chain, allele A*80:01 (Homo sapiens, UniProt P04439)
Sequence,binding
GIVSSMHYK,inactive
VVPSYIPLV,inactive
LPRERFRKT,inactive
FPIPTEVVA,inactive
LVGNTLTTC,inactive
FHSRFVQAL,inactive
APDGFYPFK,inactive
DELWRGLLA,inactive

# Sample 3 — observed: enzyme activity; mode: inhibitor; concentration: 10 µM
# Target: Calcium/calmodulin-dependent protein kinase type II subunit alpha (CAMK2A, Homo sapiens, UniProt Q9UQM7)
# UniProt Q9UQM7, sequence (whole entry, looked up): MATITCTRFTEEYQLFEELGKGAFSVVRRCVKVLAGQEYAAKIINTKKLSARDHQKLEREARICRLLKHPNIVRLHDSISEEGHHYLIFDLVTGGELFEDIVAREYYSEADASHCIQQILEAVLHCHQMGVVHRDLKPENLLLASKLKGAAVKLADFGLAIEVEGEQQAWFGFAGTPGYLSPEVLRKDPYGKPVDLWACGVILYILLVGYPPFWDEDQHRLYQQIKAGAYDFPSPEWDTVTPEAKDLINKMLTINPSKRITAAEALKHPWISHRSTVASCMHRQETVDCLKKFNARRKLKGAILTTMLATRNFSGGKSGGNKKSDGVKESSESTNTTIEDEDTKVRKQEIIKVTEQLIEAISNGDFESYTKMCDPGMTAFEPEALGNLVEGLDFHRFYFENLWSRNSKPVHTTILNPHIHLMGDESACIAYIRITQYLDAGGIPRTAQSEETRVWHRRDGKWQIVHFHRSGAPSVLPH
SMILES,inhibition [%]
CCc1ccc(O)c2cc3c(nc12)-c1cc2c(c(=O)n1C3)COC(=O)[C@]2(O)CC,32
CC(C)=CCCC1=CC(=O)c2c(O)ccc(O)c2C1=O,11
CC(C)[C@@]1(NC(=O)[C@@H]2C[C@@H]3c4cccc5[nH]cc(c45)C[C@H]3N(C)C2)O[C@@]2(O)[C@@H]3CCCN3C(=O)[C@H](Cc3ccccc3)N2C1=O,-3
C/C=C1/CN2[C@@H]3C[C@@]45c6ccccc6N[C@]4(O3)[C@@H]2C[C@@H]1[C@H]5C(=O)OC,6

# Further values, each from its own experiment
Molecule,tested on,assay,test system,setting,quantity,value
FC(F)(F)c1ccc2c(c1)nc(-c1cccnc1)n2C1CC1,"pknB (Mycobacterium tuberculosis, UniProt P9WI81)","cell-free assay, competition with immobilised ligand",,1 µM,remaining binding,100%
[N-]=[N+]=CC(=O)CC[C@H](N)C(=O)O,,,"C57BL/6 CES1-/- mouse, blood","intravenous, 1 mg/kg equivalent",haematocrit,19.8%
CN(C(=O)c1ccccc1)c1cc(N(C)c2ccc3c(c2)CCc2ccc(C(=O)NCCN4CCOCC4)cc2C3=O)ccc1F,"CDPK1 (Plasmodium falciparum, UniProt P62344)","cell-free assay, competition with immobilised ligand",,1 µM,remaining binding,100%
O=C1CCC(N2Cc3c(ccc4c3OCC43CCN(Cc4ccsc4)CC3)C2=O)C(=O)N1 (stereo not shown),"CRBN/Zinc finger protein Helios (Homo sapiens, UniProt Q96SW2+Q9UKS7)","degrader, HiBiT",HEK293,13.72 nM,protein remaining,40.2%
Ac-DEVD-CHO,"Caspase-6 (CASP6, Homo sapiens, UniProt P55212)",,,,IC50,65.9 nM
